# Experimental data from different studies.
# ± marks the error that the study gave.
# Cell line: A-431
Compound,assay,conditions,endpoint,result
CCOC(=O)/C(=N\Nc1ccc(S(=O)(=O)Nc2ncccn2)cc1)C(=O)c1ccccc1,"cell growth or viability, MTT",48 h,IC50,13.9 µM
COc1cc(/C=C/C(=O)NCCCCCCNC2=C3C[C@@H](C)C[C@H](OC)[C@H](O)[C@@H](C)/C=C(\C)[C@H](OC(N)=O)[C@@H](OC)/C=C\C=C(/C)C(=O)NC(=CC2=O)C3=O)ccc1O,"cell growth or viability, MTT",72 h,IC50,0.685 µM
CCCCCCCCCCCCOc1c(O)cc(C(=O)O[C@@H]2Cc3c(O)cc(O)cc3O[C@@H]2c2cc(O)c(O)c(O)c2)cc1O,"cell growth or viability, CCK-8",24 h,IC50,50.5 µM
CC(=O)N[C@H](C(=O)N[C@@H](CCCNC(=N)N)C(=O)N[C@@H](CCCCN)C(=O)N[C@@H](CCCNC(=N)N)C(=O)N[C@H](C(=O)N[C@@H](CC(C)C)C(=O)N[C@@H](CCCNC(=N)N)C(=O)N[C@]1(C)CCCCCCC=CCCC[C@@](C)(C(=O)N[C@H](C(=O)N[C@@H](CCC(=O)O)C(N)=O)C(C)C)NC(=O)[C@H](CCC(=O)O)NC(=O)[C@H](CCCNC(=N)N)NC(=O)[C@H](CCC(=O)O)NC(=O)[C@H](CCC(N)=O)NC(=O)[C@H](CC(C)C)NC(=O)[C@H](CC(C)C)NC1=O)[C@@H](C)O)C(C)C,,"concentration not given, 18 h",viability,inactive
C#Cc1cccc(Nc2ncnc3cc(OC)c(OCCCN4CCOCC4)cc23)c1,"cell growth or viability, SRB",72 h,IC50,< 1 µM
O=C(/C=C/c1ccc2c(c1)C(=O)N(CCCc1ccccc1)CC2)NO,"cell growth, SRB",72 h,IC50,2.31 ± 0.41 µM
CC(C)c1cccc(C(C)C)c1-n1c(Cl)c(Cl)n(-c2c(C(C)C)cccc2C(C)C)c1=[Se].[Cl][Au],"cell growth or viability, MTT",72 h,IC50,0.4 µM
CCCCCCOc1c(O)cc(C(=O)O[C@@H]2Cc3c(O)cc(O)cc3O[C@@H]2c2cc(O)c(O)c(O)c2)cc1O,"cell growth, inhibitor, CCK-8",24 h,IC50,105.9 ± 0.03 µM
CC(=O)N[C@@H](CC[S+](C)[Ru-4]123([S+](C)CC[C@H](NC(C)=O)C(=O)O)[n+]4ccc5ccccc5c4Nc4cccc([n+]41)-c1cccc([n+]12)Nc1c2ccccc2cc[n+]13)C(=O)[O-].F[P-](F)(F)(F)(F)F (stereo partly shown),cytotoxicity,"dark, 6 and 24 h",EC50,~35 µM
CCCC(C)NC(=O)C(Nc1ccccc1C(=O)c1ccccc1)c1cn(C)c2ccccc12 (stereo not shown),"cell growth or viability, MTT",72 h,GI50,11 µM
CC(C)c1cccc(C(C)C)c1N1CCN(c2c(C(C)C)cccc2C(C)C)C1=[Se].[Cl][Ag],"cell growth or viability, MTT",72 h,IC50,0.6 µM
CCCCCCCCOc1c(O)cc(C(=O)O[C@@H]2Cc3c(O)cc(O)cc3O[C@@H]2c2cc(O)c(O)c(O)c2)cc1O,"cell growth or viability, CCK-8",24 h,IC50,109 µM
CC(C)c1cccc(C(C)C)c1-n1ccn(-c2c(C(C)C)cccc2C(C)C)c1=[Se].[Cl][Au],"cell growth or viability, MTT",72 h,IC50,9.2 µM
CCCCCCCCCCCCCCOc1c(O)cc(C(=O)O[C@@H]2Cc3c(O)cc(O)cc3O[C@@H]2c2cc(O)c(O)c(O)c2)cc1O,"cell growth or viability, CCK-8",24 h,IC50,30.5 µM
CC(=O)N[C@H](C(=O)N[C@@H](CCCNC(=N)N)C(=O)N[C@@H](CCCCN)C(=O)N[C@@H](CCCNC(=N)N)C(=O)N[C@]1(C)CCCCCCC=CCCC[C@@](C)(C(=O)N[C@@H](CCCNC(=N)N)C(=O)N[C@@H](CCC(=O)O)C(=O)N[C@@H](CC(C)C)C(=O)N[C@H](C(=O)N[C@@H](CCC(=O)O)C(N)=O)C(C)C)NC(=O)[C@H](CCC(N)=O)NC(=O)[C@H](CC(C)C)NC(=O)[C@H](CC(C)C)NC(=O)[C@H](CCCNC(=N)N)NC(=O)[C@H](CCCNC(=N)N)NC(=O)[C@H](CC(C)C)NC1=O)C(C)C,"immunoblot, item: EGFR, Akt, Erk","concentration not given, 2 h, together with: 10 ng/mL EGF",total protein level,no effect
COCC1CN(C2CCN(c3cc(OC)c(Nc4ncc(Br)c(Nc5ccc6c(c5P(C)(C)=O)OCCO6)n4)cc3C)CC2)C1,"cell growth or viability, ATP luminescence",72 h,IC50,0.149 µM

# Repeated from above:
Compound,assay,conditions,endpoint,result
CC(=O)N[C@H](C(=O)N[C@@H](CCCNC(=N)N)C(=O)N[C@@H](CCCCN)C(=O)N[C@@H](CCCNC(=N)N)C(=O)N[C@H](C(=O)N[C@@H](CC(C)C)C(=O)N[C@@H](CCCNC(=N)N)C(=O)N[C@]1(C)CCCCCCC=CCCC[C@@](C)(C(=O)N[C@H](C(=O)N[C@@H](CCC(=O)O)C(N)=O)C(C)C)NC(=O)[C@H](CCC(=O)O)NC(=O)[C@H](CCCNC(=N)N)NC(=O)[C@H](CCC(=O)O)NC(=O)[C@H](CCC(N)=O)NC(=O)[C@H](CC(C)C)NC(=O)[C@H](CC(C)C)NC1=O)[C@@H](C)O)C(C)C,,"concentration not given, 18 h",viability,inactive
C#Cc1cccc(Nc2ncnc3cc(OC)c(OCCCN4CCOCC4)cc23)c1,"cell growth or viability, SRB",72 h,IC50,< 1 µM
